Experimental data gathered from unrelated publications.
Protocols differ between the studies behind these lines. “And” joins repeats or separate records; there may be more than shown. ± gives the spread as reported.
CALCR isoform a: Calcitonin receptor, isoform a (CALCR, Homo sapiens, UniProt P30988)
agrC: Receptor-histidine kinase AgrC (agrC, Staphylococcus aureus, UniProt O07911)
OPRK1: Kappa-type opioid receptor (OPRK1, Homo sapiens, UniProt P41145)
CNR2: Cannabinoid receptor 2 (CNR2, Homo sapiens, UniProt P34972)

`CCCCC/C=C\C/C=C\C/C=C\C/C=C\CCCC(=O)NCCc1ccc(O)c(O)c1` has an EC50 of 170 ± 70 nM (Trpv1 (Mus musculus, UniProt Q704Y3, N552L); ion current, agonist, whole-cell patch clamp; 24 °C, N552L, +80 mV).
`CC[C@H](C)[C@H](NC(=O)[C@@H]1CCCN1C(=O)CNC(=O)[C@H](Cc1ccccc1)NC(=O)[C@H](CC(N)=O)NC(=O)[C@H](CC(N)=O)NC(=O)[C@H](CO)NC(=O)[C@H](CO)NC(=O)[C@H](Cc1c[nH]cn1)NC(=O)[C@H](CCCNC(=N)N)NC(=O)[C@H](CC(C)C)NC(=O)[C@H](Cc1ccccc1)NC(=O)[C@H](CCC(=O)O)NC(=O)[C@H](C)NC(=O)[C@H](CC(C)C)NC(=O)[C@H](CCCNC(=N)N)NC(=O)[C@H](CCC(N)=O)NC(=O)[C@@H](NC(=O)[C@H](C)NC(=O)[C@@H]1CSSC[C@H](NC(=O)[C@@H](N)CCCCN)C(=O)N[C@@H](CC(N)=O)C(=O)N[C@@H]([C@@H](C)O)C(=O)N[C@@H](C)C(=O)N[C@@H]([C@@H](C)O)C(=O)N1)[C@@H](C)O)C(=O)N[C@@H](CC(C)C)C(=O)N1CCC[C@H]1C(=O)N1CCC[C@H]1C(=O)N[C@H](C(=O)N[C@@H](CC(N)=O)C(=O)N[C@H](C(=O)NCC(=O)N[C@@H](CO)C(=O)N[C@@H](CC(N)=O)C(=O)N[C@H](C(=O)N1CCC[C@H]1C(N)=O)[C@@H](C)O)C(C)C)[C@@H](C)O` gave an EC50 of 0.0138 nM (CALCR isoform a; reporter gene, agonist, CRE-luciferase; BHK expressing CTR; 3 h).
The EC50 of `O=C(O)CCn1c(=O)oc2cc(Cl)c(Cl)cc21` is reported as > 100000 nM (ADORA2A (Homo sapiens, UniProt P29274); agonist).
`Cc1cc(C(c2ccc(Cl)cc2)c2ccc(Cl)cc2)sc1C(=O)N[C@@H](CCCNC(=N)N)C(=O)O` has an EC50 of 138 nM (C3AR1 (Homo sapiens, UniProt Q16581); β-arrestin-2 recruitment, agonist, NanoBiT).
`CC[C@H](C)[C@@H]1NC(=O)[C@H](CC(=O)O)NC(=O)[C@@H](NC(=O)[C@@H](NC(=O)[C@H](CO)NC(=O)[C@@H](N)Cc2ccc(O)cc2)[C@@H](C)O)CSC(=O)[C@H](CCSC)NC1=O` gave an EC50 of > 10000 nM (agrC; Staphylococcus aureus cells).
`O=C(Cc1ccc(Cl)c(Cl)c1)N1CCN[C@@H]2COC[C@H](N3CCCC3)[C@H]21` gave an EC50 of 46 ± 5.4 nM (OPRK1).
`CC(=O)N[C@@H](CC(=O)O)C(=O)N[C@@H](CCC(=O)O)C(=O)N[C@H](C(=O)N[C@H](C=O)CC(=O)O)C(C)C` has an EC50 of 1.1 nM (Caspase-7 (CASP7, Homo sapiens, UniProt P55210)).
`C[C@@]12CC[C@@H]3[C@H](CC[C@@H]4C[C@@H](O)CC[C@]43C)[C@H]1CC(=O)C2` gave an EC50 of 7820 nM (CNR2; cAMP, agonist).
`CC[C@H](C)[C@@H]1NC(=O)[C@H](Cc2ccccc2)NC(=O)C[C@H](CC(=O)O)NC(=O)[C@@H](NC(=O)[C@@H](NC(=O)[C@H](CO)NC(=O)[C@@H](N)Cc2ccc(O)cc2)[C@@H](C)O)CSC(=O)[C@H](CCSC)NC1=O` gave an EC50 of ~800 nM and 809 nM (agrC; Staphylococcus aureus cells).
The EC50 of `CC[C@H](C)[C@H](NC(=O)[C@H](C)NC(=O)CNC(=O)[C@H](Cc1ccccc1)NC(=O)[C@H](CC(N)=O)NC(=O)[C@H](CC(N)=O)NC(=O)[C@H](CO)NC(=O)[C@H](CO)NC(=O)[C@H](Cc1c[nH]cn1)NC(=O)[C@@H](NC(=O)[C@H](CC(C)C)NC(=O)[C@H](Cc1ccccc1)NC(=O)[C@H](CC(N)=O)NC(=O)[C@H](C)NC(=O)[C@H](CC(C)C)NC(=O)[C@H](CCCNC(=N)N)NC(=O)[C@H](CCC(N)=O)NC(=O)[C@@H](NC(=O)[C@H](C)NC(=O)[C@@H]1CSSC[C@H](NC(=O)[C@H](CCCCN)NC(=O)[C@H](CCCNC(=N)N)NC(=O)[C@H](CCCCN)NC(=O)[C@H](CCC(=O)O)NC(=O)[C@@H](NC(=O)[C@H](CCC(N)=O)NC(=O)[C@H](Cc2c[nH]cn2)NC(=O)[C@H](CO)NC(=O)[C@H](CCC(=O)O)NC(=O)[C@@H](NC(=O)[C@@H]2CCCN2C(=O)[C@@H](N)[C@@H](C)O)[C@@H](C)CC)C(C)C)C(=O)N[C@@H](CC(N)=O)C(=O)N[C@@H]([C@@H](C)O)C(=O)N[C@@H](C)C(=O)N[C@@H]([C@@H](C)O)C(=O)N1)[C@@H](C)O)C(C)C)C(=O)N[C@@H](CC(C)C)C(=O)N[C@@H](CO)C(=O)N[C@@H](CO)C(=O)N[C@H](C(=O)N[C@@H](CC(N)=O)C(=O)N[C@H](C(=O)NCC(=O)N[C@@H](CO)C(=O)N[C@@H](CC(N)=O)C(=O)N[C@H](C(=O)N[C@@H](Cc1ccc(O)cc1)C(N)=O)[C@@H](C)O)C(C)C)[C@@H](C)O` is reported as 50.1 nM (CALCR isoform a; cAMP accumulation, agonist; COS-7, transfected).
`CC(C)[C@H](NC(=O)c1ccn(Cc2ccc(F)cc2)n1)C(N)=O` gave an EC50 of > 10000 nM (CNR2; calcium signal, agonist).
`Cc1cc(O)cc(C)c1C[C@H](N)C(=O)N[C@H](CCCNC(=N)N)C(=O)N[C@@H](Cc1ccccc1)C(=O)N(C)CC(=O)N(C)Cc1cc(C(F)(F)F)cc(C(F)(F)F)c1` gave an EC50 of 25.9 nM (OPRD1 (Homo sapiens, UniProt P41143, V281A); agonist).
With `CCN(Cc1ccccc1)C(=O)CCc1nc(CN2CCN(C(=O)Cc3ccc(OC)c(OC)c3)CC2)no1` the EC50 was 179 ± 78 nM (SCN9A (Homo sapiens, UniProt Q15858); activation V1/2 shift, whole-cell patch clamp; stable HEK cells, NaV1.7 current).
`CSCC[C@@H]1NC(=O)[C@H](Cc2ccccc2)NC(=O)[C@H](CC(=O)O)NC(=O)[C@@H](NC(=O)[C@@H](NC(=O)[C@H](CO)NC(=O)[C@@H](N)Cc2ccc(O)cc2)[C@@H](C)O)CSC1=O` gave an EC50 of > 10000 nM (agrC; Staphylococcus aureus cells).
With `CC(C)C[C@H](NC(=O)[C@H](Cc1ccccc1)NC(=O)CNC(=O)CNC(=O)[C@@H](N)Cc1ccc(O)cc1)C(=O)N[C@@H](CCCNC(=N)N)C(=O)N[C@@H](CCCCN)C(=O)N[C@@H](Cc1ccc(O)cc1)C(=O)N1CCC[C@H]1C(=O)O` the EC50 was 17200 ± 930 nM (GPR139 (Homo sapiens, UniProt Q6DWJ6); calcium response, agonist, BRET; HEK293T/17, transfected).
`CN(C)[C@H]1COC[C@H]2NCCN(C(=O)Cc3ccc(Cl)c(Cl)c3)[C@@H]21` (relative stereo) gave an EC50 of 350 ± 22 nM (OPRK1).
For `CC[C@H](C)[C@@H](C(=O)N[C@@H](CC(C)C)C(=O)N[C@@H](CO)C(=O)N[C@@H](CO)C(=O)N[C@H](C(=O)N[C@@H](CC(N)=O)C(=O)N[C@H](C(=O)NCC(=O)N[C@@H](CO)C(=O)N[C@@H](CC(N)=O)C(=O)N[C@H](C(=O)N[C@@H](Cc1ccc(O)cc1)C(N)=O)[C@@H](C)O)C(C)C)[C@@H](C)O)N(C)C(=O)[C@H](C)NC(=O)CN(C)C(=O)[C@H](Cc1ccccc1)NC(=O)[C@H](CC(N)=O)NC(=O)[C@H](CC(N)=O)NC(=O)[C@H](CO)NC(=O)[C@H](CO)NC(=O)[C@H](Cc1c[nH]cn1)NC(=O)[C@@H](NC(=O)[C@H](CC(C)C)NC(=O)[C@H](Cc1ccccc1)NC(=O)[C@H](CC(N)=O)NC(=O)[C@H](C)NC(=O)[C@H](CC(C)C)NC(=O)[C@H](CCCNC(=N)N)NC(=O)[C@H](CCC(N)=O)NC(=O)[C@@H](NC(=O)[C@H](C)NC(=O)[C@@H]1CSSC[C@H](NC(=O)[C@H](CCCCN)NC(=O)CC[C@H](NC(=O)CCCCCCCCCCCCCCCCCCC(=O)O)C(=O)O)C(=O)N[C@@H](CC(N)=O)C(=O)N[C@@H]([C@@H](C)O)C(=O)N[C@@H](C)C(=O)N[C@@H]([C@@H](C)O)C(=O)N1)[C@@H](C)O)C(C)C`, the EC50 was 9.77 nM (Calcitonin receptor (CALCR, Homo sapiens, UniProt P30988); cAMP, agonist).
`CC(C)[C@H](NC(=O)[C@@H]1CSSC(C)(C)[C@H](NC(=O)[C@@H](N)CC(=O)O)C(=O)N[C@@H](Cc2ccccc2)C(=O)N[C@@H](Cc2c[nH]c3ccccc23)C(=O)N[C@@H](CCCCN)C(=O)N[C@@H](Cc2ccc(O)cc2)C(=O)N1)C(=O)O` gave an EC50 of 2.51 nM (UTS2R (Homo sapiens, UniProt Q9UKP6, F127A); IP1 accumulation, agonist, HTRF; HEK293T; 1 h, 37 °C, F127A mutant, 3.29).

Excerpt of the above:
The EC50 of `CC[C@H](C)[C@H](NC(=O)[C@H](C)NC(=O)CNC(=O)[C@H](Cc1ccccc1)NC(=O)[C@H](CC(N)=O)NC(=O)[C@H](CC(N)=O)NC(=O)[C@H](CO)NC(=O)[C@H](CO)NC(=O)[C@H](Cc1c[nH]cn1)NC(=O)[C@@H](NC(=O)[C@H](CC(C)C)NC(=O)[C@H](Cc1ccccc1)NC(=O)[C@H](CC(N)=O)NC(=O)[C@H](C)NC(=O)[C@H](CC(C)C)NC(=O)[C@H](CCCNC(=N)N)NC(=O)[C@H](CCC(N)=O)NC(=O)[C@@H](NC(=O)[C@H](C)NC(=O)[C@@H]1CSSC[C@H](NC(=O)[C@H](CCCCN)NC(=O)[C@H](CCCNC(=N)N)NC(=O)[C@H](CCCCN)NC(=O)[C@H](CCC(=O)O)NC(=O)[C@@H](NC(=O)[C@H](CCC(N)=O)NC(=O)[C@H](Cc2c[nH]cn2)NC(=O)[C@H](CO)NC(=O)[C@H](CCC(=O)O)NC(=O)[C@@H](NC(=O)[C@@H]2CCCN2C(=O)[C@@H](N)[C@@H](C)O)[C@@H](C)CC)C(C)C)C(=O)N[C@@H](CC(N)=O)C(=O)N[C@@H]([C@@H](C)O)C(=O)N[C@@H](C)C(=O)N[C@@H]([C@@H](C)O)C(=O)N1)[C@@H](C)O)C(C)C)C(=O)N[C@@H](CC(C)C)C(=O)N[C@@H](CO)C(=O)N[C@@H](CO)C(=O)N[C@H](C(=O)N[C@@H](CC(N)=O)C(=O)N[C@H](C(=O)NCC(=O)N[C@@H](CO)C(=O)N[C@@H](CC(N)=O)C(=O)N[C@H](C(=O)N[C@@H](Cc1ccc(O)cc1)C(N)=O)[C@@H](C)O)C(C)C)[C@@H](C)O` is reported as 50.1 nM (CALCR isoform a; cAMP accumulation, agonist; COS-7, transfected).
